Measurements pooled from the literature.
Lines come from different studies, so protocols differ.
Organism: Staphylococcus aureus

SMILES | test | test system | setting | MIC
CCn1c(-c2ccc(Br)cc2)c(-c2ccc(Br)cc2)n(CC)c1=[Se] | microbial growth, broth dilution | ATCC700699 VISA | 24 h, drug-resistant strain | > 40 µM
CC[C@H](C)[C@H](NC(=O)[C@@H](CCCNC(=N)N)NC(=O)[C@H](CCCNC(=N)N)NC(=O)[C@@H]1CCCN1C(=O)[C@@H]1CCCN1C(=O)[C@H](CCCNC(=N)N)NC(=O)[C@@H]1CCCN1C(=O)[C@H](CCCNC(=N)N)NC(=O)[C@@H]1CCCN1C(=O)[C@H](CC(C)C)NC(=O)[C@H](Cc1ccc(O)cc1)NC(=O)[C@H](Cc1c[nH]cn1)NC(=O)[C@@H]1CCCN1C(=O)[C@H](CCCCN)NC(=O)[C@H](CC(=O)O)NC(=O)[C@@H](N)C(C)C)C(=O)N[C@@H](Cc1ccc(O)cc1)C(=O)N[C@@H](CC(N)=O)C(=O)N[C@H](CCCNC(=N)N)C(N)=O | broth microdilution | DSM 6247 | 18 h, 37 °C, 25% MHB2 | > 128 µg/mL
CCCCCCCC[C@@H]1NC(=O)[C@@H](CCCN)NC(=O)[C@@H](NC(=O)[C@@H](NC(=O)[C@@H](CCC(=O)O)NC(=O)[C@H](CC(C)C)NC(=O)[C@@H]2CSC([C@@H](N)[C@@H](C)CC)=N2)[C@@H](C)CC)CCCCNC(=O)[C@H](CC(N)=O)NC(=O)[C@@H](CC(=O)O)NC(=O)[C@H](Cc2c[nH]cn2)NC(=O)[C@@H](Cc2ccccc2)NC1=O | – | USA300 MRSA | added: ZnSO4 0.3 mM | 2 µg/mL
CC[C@H](C)[C@H](NC(=O)[C@H](CC(C)C)NC(=O)[C@H](CCCNC(=N)N)NC(=O)CNC(=O)CNC(=O)[C@H](CCCCN)NC(=O)[C@H](CCCNC(=N)N)NC(=O)[C@H](CC(C)C)NC(=O)[C@H](CC(C)C)NC(=O)[C@H](CCCNC(=N)N)NC(=O)[C@@H](NC(=O)[C@H](CC(C)C)NC(=O)[C@@H](N)CO)[C@@H](C)O)C(=O)NCC(=O)N[C@@H](Cc1c[nH]c2ccccc12)C(=O)N[C@@H](CCCNC(=N)N)C(=O)N[C@@H](Cc1c[nH]c2ccccc12)C(=O)N[C@@H](CCC(=O)O)C(=O)N[C@@H](CCCCN)C(=O)N[C@H](C(=O)N[C@@H](CCCNC(=N)N)C(=O)N[C@@H](CC(N)=O)C(=O)N[C@@H](Cc1c[nH]c2ccccc12)C(=O)N[C@H](C(=O)N[C@@H](CCCNC(=N)N)C(=O)N[C@@H](CCCNC(=N)N)C(=O)N[C@H](C(=O)N[C@H](C(=O)N[C@@H](CCC(=O)O)C(=O)N[C@@H](CCCCN)C(=O)N[C@@H](CCCNC(=N)N)C(=O)N[C@@H](CCCCN)C(=O)N1CCC[C@H]1C(=O)N[C@@H](CC(N)=O)C(=O)N[C@@H](CCCCN)C(=O)O)[C@@H](C)CC)[C@@H](C)CC)[C@@H](C)CC)[C@@H](C)O | broth microdilution | ATCC 25923 | – | 1.24 log10 µg/mL
CC[C@H](C)[C@@H]1NC(=O)[C@@H]2CCCN2C(=O)[C@H](C)NC(=O)[C@H](CC(C)C)NC(=O)[C@@H]2CCCN2C(=O)[C@H](C)NC(=O)[C@@H]2CSSC[C@H](NC(=O)[C@H](C)NC(=O)[C@H](C)NC(=O)[C@H](Cc3ccc(O)cc3)NC(=O)[C@@H]3CCCN3C(=O)CNC(=O)[C@H](Cc3c[nH]c4ccccc34)NC1=O)C(=O)N[C@@H](CC(C)C)C(=O)N[C@@H](CO)C(=O)N[C@@H](C)C(=O)N[C@H]1CSSC[C@H](NC(=O)[C@H](C(C)C)NC(=O)[C@@H]3CCCN3C(=O)CNC(=O)CNC(=O)CNC(=O)[C@H](C)NC(=O)[C@H](C)NC(=O)[C@H](CC(C)C)NC1=O)C(=O)N[C@@H](CC(C)C)C(=O)N[C@@H](C)C(=O)N[C@@H](C(C)C)C(=O)N2 | – | ATCC 43300 | – | > 128 µg/mL
CC[C@H](C)[C@H](NC(=O)[C@H](CCCCN)NC(=O)[C@@H](NC(=O)[C@@H](NC(=O)[C@H](CC(C)C)NC(=O)[C@H](CCCNC(=N)N)NC(=O)[C@@H](NC(=O)[C@H](CC(C)C)NC(=O)[C@H](CCCNC(=N)N)NC(=O)CNC(=O)[C@H](Cc1ccccc1)NC(=O)[C@@H](N)CCCNC(=N)N)[C@@H](C)CC)[C@@H](C)CC)C(C)C)C(=O)N[C@@H](C)C(=O)N[C@@H](CCCNC(=N)N)C(=O)N[C@@H](CCCNC(=N)N)C(=O)N[C@@H](C)C(=O)N[C@@H](Cc1c[nH]cn1)C(=O)N[C@@H](CCCNC(=N)N)C(=O)N[C@@H](C)C(=O)N[C@@H](CCCNC(=N)N)C(=O)N1CCC[C@H]1C(=O)N[C@@H](C)C(=O)N[C@H](C(=O)N[C@@H](CCCCN)C(=O)N[C@@H](C)C(=O)N[C@@H](C)C(=O)N[C@@H](CO)C(=O)N[C@@H](CC(N)=O)C(=O)N[C@H](C(=O)N[C@@H](C)C(=O)N[C@@H](CCC(=O)O)C(=O)N[C@@H](CC(C)C)C(=O)N[C@@H](C)C(=O)N[C@@H](Cc1c[nH]cn1)C(=O)NCC(=O)N[C@@H](CCC(=O)O)C(N)=O)C(C)C)C(C)C | broth microdilution | – | 18 h, 37 °C | 0.999 µM
CC(C)CCCCCCCCC/C=C/C(=O)N[C@@H](CC(=O)O)C(=O)N[C@H]1CNC(=O)[C@@H]2CCCN2C(=O)[C@H](C(C)C)NC(=O)[C@@H](CN)NC(=O)CNC(=O)[C@H](CC(=O)O)NC(=O)CNC(=O)[C@H](CC(=O)O)NC(=O)[C@H](CC(=O)O)NC(=O)[C@H]2CCCCN2C1=O | broth microdilution | BR-VRSA strain 880, Mueller-Hinton broth, Mg2+ 10 mg/L | 16 h, added: Ca2+ 10 mM | 1 µg/mL
CC[C@H](C)[C@H](N)C(=O)NCC(=O)N[C@@H](CC(C)C)C(=O)N[C@H](CCC(=O)O)C(=O)N[C@H](C(=O)N[C@H]1CCCCNC(=O)[C@H](CC(N)=O)NC(=O)[C@@H](CC(=O)O)NC(=O)[C@H](Cc2c[nH]cn2)NC(=O)[C@@H](Cc2ccccc2)NC(=O)[C@H]([C@@H](C)CC)NC(=O)[C@@H](CCCN)NC1=O)[C@@H](C)CC | – | USA300 methicillin-resistant | 18 h, 37 °C, 0.3 mM ZnSO4 LB | > 64 µg/mL
CC[C@H](C)[C@@H]1NC(=O)[C@H](CO)NC(=O)C(C)(CCCCN)NC(=O)[C@@H]2CSSC[C@@H](C(=O)N[C@@H](Cc3ccc(O)cc3)C(N)=O)NC(=O)[C@H](CCCCN)NC(=O)[C@@H]3CSSC[C@H](NC(=O)[C@H](CCCNC(=N)N)NC(=O)C(C)(CC(C)C)NC(=O)[C@H](CC(=O)O)NC(=O)[C@H](CC(=O)O)NC(=O)[C@H](CCC(=O)O)NC(=O)[C@H](CC(N)=O)NC(=O)[C@H](Cc4c[nH]c5ccccc45)NC(=O)C(C)(CC)NC(=O)CNC(=O)[C@H](CC(N)=O)NC(=O)[C@@H](NC(=O)CNC(=O)[C@H](Cc4ccccc4)NC(=O)CN)CSSC[C@H](NC(=O)[C@H](Cc4ccc(O)cc4)NC(=O)CNC(=O)CNC(=O)[C@H](CCCCN)NC(=O)[C@H](Cc4ccc(O)cc4)NC(=O)[C@H]4CCCN4C(=O)[C@@H]4CCCN4C1=O)C(=O)N[C@@H](C)C(=O)N[C@@H](CCCCN)C(=O)N1CCC[C@@H]1C(=O)NCC(=O)N[C@@H](Cc1ccccc1)C(=O)N[C@@H](C(C)C)C(=O)N3)C(=O)N[C@@H](Cc1c[nH]cn1)C(=O)NC(C)(C)C(=O)N[C@@H](Cc1c[nH]cn1)C(=O)N2 (stereo partly shown) | – | 469, methicillin-resistant mecA, cation-adjusted Mueller Hinton broth | 18 h, 37 °C | 2 µM
N=C(N)NCCC[C@@H]1NC(=O)[C@H](CCCNC(=N)N)NC(=O)[C@@H](CCCNC(=N)N)NC(=O)[C@@H](CCCNC(=N)N)NC(=O)[C@@H](C(c2ccccc2)c2ccccc2)NC(=O)[C@H](Cc2c[nH]c3ccccc23)NC(=O)[C@@H](C(c2ccccc2)c2ccccc2)NC1=O | – | 1195201, multidrug-resistant | – | 8 µg/mL
C#CCOc1ccc(CN[C@@]2(C)C[C@H](O[C@H]3[C@H](Oc4c5cc6cc4Oc4ccc(cc4Cl)[C@@H](O)[C@@H](NC(=O)[C@@H](CC(C)C)NC)C(=O)N[C@@H](CC(N)=O)C(=O)N[C@H]6C(=O)N[C@H]4C(=O)N[C@H](C(=O)N[C@H](C(=O)N[C@@H](CCCNC(=N)N)C(N)=O)c6cc(O)cc(O)c6-c6cc4ccc6O)[C@H](O)c4ccc(c(Cl)c4)O5)O[C@H](CO)[C@@H](O)[C@@H]3O)O[C@@H](C)[C@H]2O)cc1OC | – | LIM-2 VISA | – | 1 µM
CC(=CC(C)CCCCC(=O)O)C1OC2C=CC1OC(=O)C=CC=CC=CC1OC3CC1OC(C=CCC1OC(CC(O)C1C)C(O)C(O)C=CCCC=CC2)C3C (stereo not shown) | microbial growth | DSM11822 | – | 0.2 µM
CC[C@H](C)[C@H](NC(=O)[C@@H](CCCNC(=N)N)NC(=O)[C@H](CCCNC(=N)N)NC(=O)[C@@H]1CCCN1C(=O)[C@@H]1CCCN1C(=O)[C@H](CCCNC(=N)N)NC(=O)[C@@H]1CCCN1C(=O)[C@H](CCCNC(=N)N)NC(=O)[C@@H]1CCCN1C(=O)[C@H](CC(C)C)NC(=O)[C@H](Cc1ccc(O)cc1)NC(=O)[C@@H]1CCCN1C(=O)[C@@H]1CCCN1C(=O)[C@H](CCCCN)NC(=O)[C@H](CC(=O)O)NC(=O)[C@@H](N)C(C)C)C(=O)N[C@@H](Cc1cc(I)c(O)c(I)c1)C(=O)N[C@@H](CC(N)=O)C(=O)N[C@H](CCCNC(=N)N)C(N)=O | broth microdilution | DSM 6247 | 18 h, 37 °C, 25% MHB2 | > 128 µg/mL
C#CCNC(=O)[C@H]1NC(=O)[C@H]2NC(=O)[C@H](NC(=O)[C@@H]3NC(=O)[C@H](CC(N)=O)NC(=O)[C@H](NC(=O)[C@@H](CC(C)C)NC)[C@H](O)c4ccc(c(Cl)c4)Oc4cc3cc(c4O[C@@H]3O[C@H](CO)[C@@H](O)[C@H](O)[C@H]3O[C@H]3C[C@](C)(N)[C@H](O)[C@H](C)O3)Oc3ccc(cc3Cl)[C@H]2O)c2ccc(O)c(c2)-c2c(O)cc(O)cc21 | – | MSSA ATCC 29213 | – | 0.336 µM
CSCC[C@H](NC=O)C(=O)N[C@@H](CCCNC(=N)N)C(=O)N[C@H](C(=O)NCC(=O)N[C@@H](CC(N)=O)C(=O)N[C@@H](C)C(=O)N[C@@H](CC(N)=O)C(=O)NCC(=O)N1CCN(c2ccc(N3C[C@H](CNC(C)=O)OC3=O)cc2F)CC1)[C@@H](C)O | broth dilution | Newman | – | > 200 µM
CC[C@H]1OC(=O)[C@H](C)[C@@H](OC(=O)Cc2ccccc2)[C@H](C)[C@@H](O[C@@H]2O[C@H](C)C[C@H](N(C)C)[C@H]2O)[C@](C)(OC)C[C@@H](C)C(=O)[C@H](C)[C@@H](O)[C@]1(C)O | – | ATCC 43300 MRSA | – | > 256 µg/mL
c1ccc(CCNC2CCCc3c2[nH]c2ccc(C4CCCCC4)cc32)cc1 (stereo not shown) | microbial growth, broth dilution | VISA | – | 4 µg/mL
CN[C@H](CC(C)C)C(=O)N[C@H]1C(=O)N[C@@H](CC(N)=O)C(=O)N[C@H]2C(=O)N[C@H]3C(=O)N[C@H](C(=O)N[C@H](C(=O)O)c4cc(O)cc(O)c4-c4cc3ccc4O)[C@H](O)c3ccc(c(Cl)c3)Oc3cc2cc(c3O[C@@H]2O[C@H](CO)[C@@H](O)[C@H](O)[C@H]2O[C@H]2C[C@](C)(NCc3ccc(OCc4cn(CC(=O)N[C@H](C(=O)N[C@@H](CCN)C(=O)N[C@H]5CCNC(=O)[C@H]([C@@H](C)O)NC(=O)[C@H](CCN)NC(=O)[C@H](CCN)NC(=O)[C@H](CC(C)C)NC(=O)[C@@H](CC(C)C)NC(=O)[C@H](CCN)NC5=O)[C@@H](C)O)nn4)c(OC)c3)[C@H](O)[C@H](C)O2)Oc2ccc(cc2Cl)[C@H]1O | broth microdilution | VISA LIM-2, tryptic soy broth | 20 to 24 h, 37 °C, 0.002% polysorbate 80 | 2 µg/mL
N=C(N)NCCC[C@H](NC(=O)[C@H](CCCNC(=N)N)NC(=O)[C@H](Cc1ccccc1)NC(=O)[C@H](CO)NC(=O)[C@H](Cc1ccccc1)NC(=O)[C@H](Cc1c[nH]c2ccccc12)NC(=O)[C@H](Cc1ccccc1)NC(=O)[C@H](CO)NC(=O)[C@H](Cc1ccccc1)NC(=O)[C@H](CCCNC(=N)N)NC(=O)[C@@H](N)CCCNC(=N)N)C(N)=O | broth microdilution | 29213, Mueller-Hinton broth | 24 h, 37 °C, lowest concentration, 95% inhibition, added: BSA | 128 µM

A few entries again:
SMILES | test | test system | setting | MIC
C#CCOc1ccc(CN[C@@]2(C)C[C@H](O[C@H]3[C@H](Oc4c5cc6cc4Oc4ccc(cc4Cl)[C@@H](O)[C@@H](NC(=O)[C@@H](CC(C)C)NC)C(=O)N[C@@H](CC(N)=O)C(=O)N[C@H]6C(=O)N[C@H]4C(=O)N[C@H](C(=O)N[C@H](C(=O)N[C@@H](CCCNC(=N)N)C(N)=O)c6cc(O)cc(O)c6-c6cc4ccc6O)[C@H](O)c4ccc(c(Cl)c4)O5)O[C@H](CO)[C@@H](O)[C@@H]3O)O[C@@H](C)[C@H]2O)cc1OC | – | LIM-2 VISA | – | 1 µM
CC[C@H]1OC(=O)[C@H](C)[C@@H](OC(=O)Cc2ccccc2)[C@H](C)[C@@H](O[C@@H]2O[C@H](C)C[C@H](N(C)C)[C@H]2O)[C@](C)(OC)C[C@@H](C)C(=O)[C@H](C)[C@@H](O)[C@]1(C)O | – | ATCC 43300 MRSA | – | > 256 µg/mL
